# Measurements collected from several papers.
# Lines come from different studies, so protocols differ. ± marks the error that the study gave. Bridges are numbered along the chain shown (N, C = ends). Where no end group is shown, it is not given here. Ends that are not written are not given here.
# B1: enzyme (Bacillus pumilus, UniProt A8FFI9); chain EARSIAWSVDEFFKNREGTFVIQEVKEKSPWVYNKKRAKERFAPQSTFKVANALIGLQTGAVRDEYDIKYWDGVKREIDNWNRDHTLGSGMRDSVVWYYQAMARDIGEERMNHWVKAIHYGNKDISGGIDQFWLSSTLRISPIEQVRFLKQLYEETLPFDLKNMRTVKRMMVQEEEKHATLYGKTGSGSDIGWYVGFIKHEHKTYILATNIKGTGIEAKDITYRILKKYHLMEASV
# B2: UGT1A9 (Homo sapiens, UniProt O60656); chain GKLLVVPMDGSHWFTMRSVVEKLILRGHEVVVVMPEVSWQLGRSLNCTVKTYSTSYTLEDLDREFKAFAHAQWKAQVRSIYSLLMGSYNDIFDLFFSNCRSLFKDKKLVEYLKESSFDAVFLDPFDNCGLIVAKYFSLPSVVFARGILCHYLEEGAQCPAPLSYVPRILLGFSDAMTFKERVRNHIMHLEEHLLCHRFFKNALEIASEILQTPVTEYDLYSHTSIWLLRTDFVLDYPKPVMPNMIFIGGINCHQGKPLPMEFEAYINASGEHGIVVFSLGSMVSEIPEKKAMAIADALGKIPQTVLWRYTGTRPSNLANNTILVKWLPQNDLLGHPMTRAFITHAGSHGVYESICNGVPMVMMPLFGDQMDNAKRMETKGAGVTLNVLEMTSEDLENALKAVINDKSYKENIMRLSSLHKDRPVEPLDLAVFWVEFVMRHKGAPHLRPAAHDLTWYQYHSLDVIGFLLAVVLTVAFITFKCCAYGYRKCLGKKGRVKKAHKSKTH
# Chain of UniProt P00760 (whole entry, looked up): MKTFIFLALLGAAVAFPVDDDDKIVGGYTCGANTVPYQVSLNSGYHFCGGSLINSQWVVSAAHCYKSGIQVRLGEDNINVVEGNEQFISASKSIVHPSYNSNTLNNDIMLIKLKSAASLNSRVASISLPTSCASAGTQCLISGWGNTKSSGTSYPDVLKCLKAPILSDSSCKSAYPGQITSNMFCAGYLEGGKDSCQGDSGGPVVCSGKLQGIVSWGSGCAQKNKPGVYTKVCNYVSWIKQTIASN
Substance,target or system,test,test system,conditions,scale,measurement,result
SQSVLYS,,,"peptide, human polyclonal IgM RF AGER","concentration not given, 5 µg/mL mAb II-481 coated, with: RF at 50% max binding concentration",,inhibition,12%
insulin lispro,,,"human, plasma",subcutaneous,,tmax,46 min
"KCNTATCATQRLANFLVHSSNNFGPILPPTNVGSNTY (Pramlintide; not fully specified (C-terminus, bridges); cysteine pairing not given here; sequence looked up)",,,"peptide, obese or overweight humans",dose not given,,streptococcal pharyngitis incidence,5.4%
N=C(N)NCCC[C@@H]1NC(=O)[C@H](CSC2CC(=O)N(CCNC(=O)CN3CCN(CC(=O)O)CCN(CC(=O)O)CCN(CC(=O)O)CC3)C2=O)NC(=O)[C@H](CCCCN)NC(=O)[C@@H](Cc2ccc(O)cc2)NC(=O)[C@H](CC(=O)O)NC(=O)CNC1=O (stereo partly shown) [gallium-68 labelled],,,"female ICR mouse, blood","intravenous, 5 MBq",,distribution half-life,1.11 ± 0.22 min
Insulin human,,ELISA,"rat, hippocampus","intranasal, 20 µg per nostril, 60 min",,concentration,47.2 ± 5.9 pg/mg tissue
insulin lispro,,,"healthy Japanese men, fasted, plasma","subcutaneous, 0.3 U/kg",,AUC(0-t),12.3 ± 1.45 ng·h/mL
TMPFLFCNVNDVCNFASRNDYSKKK (99mTc-labelled),,TLC,"peptide, saline","8 h, 37 °C",,radiochemical purity,> 90%
LIYWAST,,,"peptide, human polyclonal IgM RF AGER","concentration not given, 5 µg/mL mAb II-481 coated, with: RF at 50% max binding concentration",,inhibition,32%
pegcetacoplan,,population PK model,"human, GA or nAMD, serum",intravitreal,,apparent clearance CL/F,0.325 L/day
B1 (enzyme),O=C(Cc1cccs1)N[C@@H]1C(=O)N2C(C(=O)O)=C(/C=C/c3ccc([N+](=O)[O-])cc3[N+](=O)[O-])CS[C@H]12,steady-state kinetics,,pH 7,,kcat,830 ± 30 s⁻¹
B2 (UGT1A9),COc1cc(-c2cc(=O)c3c(O)cc(O)cc3o2)cc(OC)c1OC,steady-state kinetics,,"pH 7.4, 37 °C",,Vmax,0.000382 µmol/min/mg
insulin aspart,,measured: free drug,"elderly type 1 diabetes, serum","subcutaneous, 0.2 U/kg, 12 h",,AUC(0-t),0.881 nM·h
CARLSLSWRGLTLCPSK (68Ga-DOTA-labelled),mouse VAP-1,ex vivo biodistribution,"peptide, wild-type mouse, B16 melanoma xenograft, tumour","60 min, with: 500-fold excess unlabelled DOTA-peptide",,uptake,0.17 ± 0.02 SUV
rnpA F107W (Bacillus subtilis),,"NMR, measured: His3",,"25 °C, 20 ± 1 mM, unfolded state, no sulfate",,pKa,5.71
CGGQDLKSC (disulfide 1-9 (inferred)) (disulfide),,fluorescence imaging,"Balb/c mice, nanoparticles","intratracheal, 24 h",reference: initial fluorescence,retention in airways,~68%
TMPFLFCNVNDVCNFASRNDYSYWLHHHHHH (99mTc-labelled),,TLC,"peptide, rat serum","8 h, 37 °C",,radiochemical purity,> 90%
insulin,,shake-flask,1-octanol/acidified water,3 h,,concentration in aqueous phase,892 µg/mL
CC(C)[C@H](NC(=O)[C@@H]1CCCN1C(=O)[C@H](CCCNC(=N)N)NC(=O)[C@H](CS)NC(=O)[C@H](Cc1c[nH]c2ccccc12)NC(=O)[C@H](CCCNC(=N)N)NC(=O)[C@@H](Cc1ccccc1)NC(=O)[C@H](Cc1c[nH]cn1)NC(=O)[C@H](CCC(=O)O)NC(=O)[C@H](CS)NC(=O)[C@H](CS)NC(=O)[C@H](CCCCN)NC(=O)[C@@H]1CC(=O)N[C@@H](CCCNC(=N)N)C(=O)N[C@@H](C)C(=O)N[C@@H](CC(=O)O)C(=O)N[C@H](Cc2ccc(O)cc2)C(=O)N1)C(N)=O [technetium-99m labelled],,,"C57 mice, kidneys","intravenous, 0.037 MBq, 24 h",,tissue uptake,33.2 ± 3.39 %ID/g
insulin human,"Serine protease 1 (PRSS1, Bos taurus, UniProt P00760)","proteolytic degradation, RP-HPLC",,"15 µM, pH 7.4, 37 °C",,half-life,25.8 min

# Excerpt of the above:
Substance,target or system,test,test system,conditions,scale,measurement,result
CARLSLSWRGLTLCPSK (68Ga-DOTA-labelled),mouse VAP-1,ex vivo biodistribution,"peptide, wild-type mouse, B16 melanoma xenograft, tumour","60 min, with: 500-fold excess unlabelled DOTA-peptide",,uptake,0.17 ± 0.02 SUV
TMPFLFCNVNDVCNFASRNDYSKKK (99mTc-labelled),,TLC,"peptide, saline","8 h, 37 °C",,radiochemical purity,> 90%
